Experimental data of several laboratories.
Each line is one published result; not all experiments were run side by side.

`Cc1cc(C)nc(Nc2ncc(C(=O)NCCc3c(C)[nH]c4ccccc34)cn2)c1` has an NOAEL of 500 mg/kg (female rat; oral, 7 days).
`C=CC(=O)N1CCCN(C(=O)c2cc(Sc3cnc(NC(=O)C4CC4)s3)c(C)cc2OC)C[C@H]1C` gave an NOAEL of over 1000 mg/kg/day (Sprague-Dawley rat; oral, 28 days, 28 daily doses, GLP).
`CC(C)CC(=O)OC[C@H]1O[C@@](C#N)(c2ccc3c(N)ncnn23)[C@H](O)[C@@H]1O` has an NOAEL of 400 mg/kg/day (Sprague-Dawley rat both sexes; oral, respiratory and CNS safety pharmacology).
For `Cc1cnc(N2CC3(CCOCC3)C2)c(C(=O)Nc2ccc(C(=O)N3CCc4cc(C(=O)Nc5c(C)cccc5F)sc4-c4ccccc43)cc2)c1`, the NOAEL was 15.8 mg/kg/day (rat; inhalation, 14 days).
For `CC[C@H](C)[C@H](NC(=O)[C@H](C)NC(=O)[C@H](CCCCN)NC(=O)[C@H](CC(C)C)NC(=O)[C@H](C)NC(=O)[C@@H](NC(=O)[C@H](Cc1c[nH]cn1)NC(=O)[C@H](CC(C)C)NC(=O)[C@@H](NC(=O)[C@@H](NC(=O)[C@H](CCCCN)NC(=O)[C@H](C)NC(=O)[C@H](C)NC(=O)[C@H](CO)NC(=O)[C@H](CCCCN)NC(=O)[C@H](Cc1ccccc1)NC(=O)[C@@H](NC(=O)[C@H](CCCCN)NC(=O)[C@H](CC(C)C)NC(=O)[C@H](Cc1ccccc1)NC(=O)[C@H](CO)NC(=O)[C@H](CCCCN)NC(=O)[C@H](Cc1c[nH]c2ccccc12)NC(=O)[C@H](CCCCN)NC(C)=O)[C@@H](C)O)[C@@H](C)O)C(C)C)[C@@H](C)O)C(=O)N[C@@H](CO)C(=O)N[C@@H](CO)C(N)=O`, the NOAEL was 1.5 mg/cm2 (Sprague-Dawley rat; transdermal, 30 days, once daily).
The NOAEL of `Cn1nccc1[C@]1(CNC(=O)c2ccc(F)c(F)c2-c2ccc(C(F)(F)F)cc2)NC(=O)NC1=O` is reported as 50 mg/kg body weight (rat; oral, two weeks, daily gavage).
With `COc1ccnc(C(=O)N[C@H]2COC(=O)[C@H](Cc3ccccc3)[C@@H](OC(=O)C(C)C)[C@H](C)OC2=O)c1OCOC(=O)C(C)C` the NOAEL was 732 mg/kg/day (neurotoxicity; rat; 90 day, repeated dose).
`C[C@H]1CN(C(=O)CC#N)[C@]12CCN(c1ncnc3[nH]ccc13)C2` gave an NOAEL of 10 mg/kg (rat, female; oral, 6 months, repeated dosing).
`CC(=O)N[C@H]1CC[C@H](NC(=O)CN2CCN(c3nncc(-c4ccc(C)cc4)n3)CC2)CC1` gave an NOAEL of 150 mg/kg/day (rats).
The NOAEL of `CCOC(=O)COc1ncccc1Oc1cc(-n2c(=O)cc(C(F)(F)F)n(C)c2=O)c(F)cc1Cl` is reported as 50 ppm in diet (Crl:CD(SD) rats, male; dietary, 90 days).

Excerpt of the above:
The NOAEL of `Cn1nccc1[C@]1(CNC(=O)c2ccc(F)c(F)c2-c2ccc(C(F)(F)F)cc2)NC(=O)NC1=O` is reported as 50 mg/kg body weight (rat; oral, two weeks, daily gavage).
